# Measurements of several laboratories.
# Parts stem from different laboratories: compare values within a part only.

# Series 1
# Target: Sal-like protein 4, full length isoform A (SALL4, Homo sapiens, UniProt Q9UJQ4, residues 1-1053)
# Chain of UniProt Q9UJQ4 (whole entry, looked up): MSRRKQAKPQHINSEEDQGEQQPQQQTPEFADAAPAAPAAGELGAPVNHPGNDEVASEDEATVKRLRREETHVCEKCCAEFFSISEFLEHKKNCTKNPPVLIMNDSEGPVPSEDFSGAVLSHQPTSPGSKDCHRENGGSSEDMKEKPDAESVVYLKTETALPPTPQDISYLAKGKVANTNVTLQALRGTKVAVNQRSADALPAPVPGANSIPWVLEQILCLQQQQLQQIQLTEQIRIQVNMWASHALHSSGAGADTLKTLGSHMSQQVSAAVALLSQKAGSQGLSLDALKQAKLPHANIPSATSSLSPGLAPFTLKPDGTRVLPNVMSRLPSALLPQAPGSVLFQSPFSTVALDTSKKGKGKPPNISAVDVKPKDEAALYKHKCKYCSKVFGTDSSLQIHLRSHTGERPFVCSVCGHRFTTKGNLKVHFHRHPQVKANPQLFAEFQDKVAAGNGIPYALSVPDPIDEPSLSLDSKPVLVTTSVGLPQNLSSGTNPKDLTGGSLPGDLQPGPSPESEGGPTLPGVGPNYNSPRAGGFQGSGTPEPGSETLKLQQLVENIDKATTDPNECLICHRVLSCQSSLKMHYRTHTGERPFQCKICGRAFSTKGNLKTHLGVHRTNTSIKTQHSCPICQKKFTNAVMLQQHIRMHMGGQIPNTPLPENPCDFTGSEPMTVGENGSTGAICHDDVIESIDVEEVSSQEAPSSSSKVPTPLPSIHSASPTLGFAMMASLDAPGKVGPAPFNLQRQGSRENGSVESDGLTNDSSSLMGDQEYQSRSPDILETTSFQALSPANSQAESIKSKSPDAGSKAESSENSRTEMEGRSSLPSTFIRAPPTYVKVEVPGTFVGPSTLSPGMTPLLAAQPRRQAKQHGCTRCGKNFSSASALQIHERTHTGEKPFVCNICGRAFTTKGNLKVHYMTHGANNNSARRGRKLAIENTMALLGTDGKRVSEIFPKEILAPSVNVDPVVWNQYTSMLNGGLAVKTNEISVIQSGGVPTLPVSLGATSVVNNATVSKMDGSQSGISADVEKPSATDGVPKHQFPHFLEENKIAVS
# Technique: universal PBM
# Molecule type: double-stranded DNA, one strand shown
# Matrix: in vitro
# Concentration: 600 nM
# Notes: 8-mer, flanks averaged, mean of replicates
# Direction: higher = stronger binding
Strand,E-score
ATTTTGAG,0.227
TCTGCCCA,-0.151
AGCGACTG,-0.0588
CTATTGAC,0.11

# Series 2
# Target: Prothrombin, mature alpha-thrombin (F2, Homo sapiens, UniProt P00734)
# Technique: aptamer microarray, sandwich
# Molecule type: DNA with 2'F-ANA
# Matrix: in vitro
# Concentration: 200 nM
# Notes: whole 15-mer aptamer, many near background
# With: Cy3 exosite-II aptamer, 400 nM
# Direction: higher = stronger binding
# Strand: GGTTGGTGTGGTTGG
Modification,mean fluorescence intensity [a.u.]
2'F-ANA at 2 3 4 8 10 12 13 15,269
2'F-ANA at 1 2 3 5 8 9 11 12 14 15,51
2'F-ANA at 1 2 4 6 7 11 12,183
2'F-ANA at 2 3 4 7 10 11 13 14 15,161
2'F-ANA at 2 3 4 6 8 9 12 13,546

# Series 3
# Target: Interferon regulatory factor 3, full length, phosphomimetic (IRF3, Homo sapiens, UniProt Q14653, residues 1-427, S386D/S396D/S398D/S402D/T404D/S405D)
# Technique: protein-binding microarray
# Molecule type: double-stranded DNA, one strand shown
# Matrix: in vitro
# Concentration: 2540 nM top
# Notes: 60-bp whole probe
# With: salmon DNA 0.4 mg/ml
# Baseline: random background probes
# Direction: higher = stronger binding
# Residues (chain): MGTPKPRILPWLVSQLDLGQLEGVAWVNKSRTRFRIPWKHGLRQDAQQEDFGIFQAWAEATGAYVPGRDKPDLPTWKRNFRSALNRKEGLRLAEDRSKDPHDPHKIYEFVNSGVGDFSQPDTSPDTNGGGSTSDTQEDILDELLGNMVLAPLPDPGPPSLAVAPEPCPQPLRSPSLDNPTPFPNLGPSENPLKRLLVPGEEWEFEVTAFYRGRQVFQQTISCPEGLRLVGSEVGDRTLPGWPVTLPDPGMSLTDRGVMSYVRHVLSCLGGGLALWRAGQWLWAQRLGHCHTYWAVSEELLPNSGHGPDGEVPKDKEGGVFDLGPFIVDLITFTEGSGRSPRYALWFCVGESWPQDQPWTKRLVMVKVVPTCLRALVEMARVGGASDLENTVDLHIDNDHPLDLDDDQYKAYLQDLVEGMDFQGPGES
Strand,fitted relative affinity [z-score]
GCCTAGCACTTAGGTTCCCTTTTTCTTTAGTGCTAGGTCTTGATTCGCTTGACGCTGCTG,6.53
GCCTAGCACGACGGACTGGGTTTTCGGGACGTGCTAGTCTTGATTCGCTTGACGCTGCTG,-0.315
GCCTAGCACTTAGGACTGGAATATCGGTTAGTGCTAGTCTTGATTCGCTTGACGCTGCTG,-0.243
GCCTAGCACTTAGATTTCAGACTGGAATAGTGCTAGGTCTTGATTCGCTTGACGCTGCTG,0.703

# Mixed results
Substance,target,test,system,conditions,how to read,measurement,value
"PhoQ, residues 284 288 289 292 302 303 GNNTDL","PhoP, residues 12 14 15 18 19 SEGLL (Escherichia coli, UniProt P23836)","Sort-seq, measured: YFP reporter",E. coli,"PhoQ-PhoP variant library, with: 10 µM Mg2+","baseline: high Mg2+ state, higher = stronger signaling",fold induction,4.16

# A few entries again (series 1):
Strand,E-score
ATTTTGAG,0.227
TCTGCCCA,-0.151
